Published values collected from several papers.
Each line is one published result; not all experiments were run side by side.
HDAC3 with NCoR2 DAD: Histone deacetylase 3, with NCoR2 DAD (HDAC3, Homo sapiens, UniProt O15379)
UniProt O15379, sequence (whole entry, looked up): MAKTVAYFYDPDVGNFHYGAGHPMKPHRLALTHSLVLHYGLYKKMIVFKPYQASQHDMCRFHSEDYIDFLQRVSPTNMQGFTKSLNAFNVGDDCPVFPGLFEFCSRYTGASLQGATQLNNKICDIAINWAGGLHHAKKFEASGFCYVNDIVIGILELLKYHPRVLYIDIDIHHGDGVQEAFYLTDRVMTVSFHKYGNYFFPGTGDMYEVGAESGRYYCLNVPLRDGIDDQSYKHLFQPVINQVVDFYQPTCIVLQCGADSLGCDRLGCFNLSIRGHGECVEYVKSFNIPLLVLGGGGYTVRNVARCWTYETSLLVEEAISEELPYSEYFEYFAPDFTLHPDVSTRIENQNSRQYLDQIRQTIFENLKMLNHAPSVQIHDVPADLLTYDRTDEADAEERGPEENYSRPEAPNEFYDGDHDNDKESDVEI
HDAC3: Histone deacetylase 3 (HDAC3, Homo sapiens, UniProt O15379)

With `O=C(NO)c1cncc(OS(=O)(=O)Oc2ccc(-n3ccnc3)cc2)c1` the IC50 was 1910 nM (HDAC3 with NCoR2 DAD; enzyme activity, inhibitor, fluorogenic; together with: substrate 20 µM).
The IC50 of `O=C(CCCCCCC(=O)Nc1ccc(CCF)cc1)NO` is reported as 146 nM (HDAC3).
`CCCC[C@H](NC(=O)[C@H](C)c1c(C)[nH]c2ccc(O)cc12)c1ncc(-c2cc3ccccc3nc2OC)[nH]1` gave a Ki of 60 nM (HDAC3; enzyme activity, inhibitor, progress curve fitting).
The Ki of `O=C(NO)c1cncc(OS(=O)(=O)Oc2ccc(C(F)(F)F)cc2)c1` is reported as 905 nM (HDAC3 with NCoR2 DAD; enzyme activity, inhibitor, fluorogenic).
With `O=C(NO)c1ccc(Cn2cnc3c(Nc4ccc(Cl)cc4)ncnc32)cc1` the IC50 was 15.1 nM (HDAC3; enzyme activity, inhibitor; together with: Ac-RHKK(Ac)-AMC substrate).
With `CCCCN(Cc1ccc(C(=O)NO)cc1)C(=O)Nc1ccccc1` the Kd was over 30.2 µM (HDAC3; inhibitor, competition pulldown; SW620 and MV4-11 lysate; 1 h).
`O=C(NO)c1cncc(OS(=O)(=O)Oc2ccc3ccccc3c2)c1` gave an IC50 of 1280 nM (HDAC3 with NCoR2 DAD; enzyme activity, inhibitor, fluorogenic; together with: substrate 20 µM).
`C=CCC[C@@H]1NC(=O)[C@H]2CCCN2C(=O)[C@H](Cc2ccccc2)NC(=O)C(C)(C)NC1=O` has an IC50 of over 300000 nM (Histone deacetylase 3, with NCoR2 (HDAC3, Homo sapiens, UniProt O15379); enzyme activity).
The Kd of `CCCCOc1ccc(CC(=O)NO)cc1` is reported as over 30.2 µM (HDAC3; inhibitor, competition pulldown; SW620 and MV4-11 lysate; 1 h).
With `CCCC[C@H](NC(=O)C1CN(C)C1)c1ncc(-c2cc3ccccc3nc2OC)[nH]1` the Ki was 273 nM (HDAC3; enzyme activity, inhibitor, progress curve fitting).

Some of these lines once more:
`C=CCC[C@@H]1NC(=O)[C@H]2CCCN2C(=O)[C@H](Cc2ccccc2)NC(=O)C(C)(C)NC1=O` has an IC50 of over 300000 nM (Histone deacetylase 3, with NCoR2 (HDAC3, Homo sapiens, UniProt O15379); enzyme activity).
